Published values pooled from the literature.
Compare with care: the assays were run in different laboratories. ± marks the error that the study gave.
Cell line: PANC-1

SMILES	observed	technique	time	setting	with	IC50 [µM]
CC[C@H](C)C(=O)O[C@H]1C[C@@H](C)C=C2C=C[C@H](C)[C@H](CC[C@@H]3C[C@@H](O)CC(=O)O3)[C@H]21	cell growth	SRB	72 h	10% FBS	–	48.8
C=CCc1ccc(O)c(-c2ccc(O)c(CC=C)c2)c1	cell proliferation	MTS	72 h	–	temozolomide 250 µM	5.01
COc1ccc(-c2ccoc2)c(/C=N/NC(=O)c2ccccc2O)c1O	cell growth or viability	–	72 h	–	–	0.765
COC(=O)c1c(-c2ccccc2O)c2n(c1C(=O)OC)CCn1cccc1-2	cell proliferation	MTT	48 h	–	–	20.28 ± 0.01
O=C(N/N=C/c1c(O)ccc2ccccc12)c1ccccc1O	cell growth or viability	–	72 h	–	–	1.07
O=c1[nH]nc(O)c2c(-c3ccc(Br)cc3)c3n(c12)CCn1cccc1-3	cell growth or viability	MTT	48 h	–	–	73.9
COc1ccc(-c2ccsc2)c(/C=N/NC(=O)c2ccccc2O)c1O	cell growth or viability	–	72 h	–	–	0.393
O=c1[nH]nc(O)c2c(-c3ccc(F)cc3)c3n(c12)CCn1cccc1-3	cell growth or viability	MTT	48 h	–	–	66.4
Cn1nnc2c(C(N)=O)ncn2c1=O	cell proliferation	MTS	72 h	–	10 µM HNL	50.1

Excerpt of the above:
SMILES	observed	technique	time	setting	with	IC50 [µM]
CC[C@H](C)C(=O)O[C@H]1C[C@@H](C)C=C2C=C[C@H](C)[C@H](CC[C@@H]3C[C@@H](O)CC(=O)O3)[C@H]21	cell growth	SRB	72 h	10% FBS	–	48.8
